Results collected from several papers.
Every numbered part comes from another study and shows a few of its results, in no order.
Sequence of UniProt P42336 (whole entry, looked up): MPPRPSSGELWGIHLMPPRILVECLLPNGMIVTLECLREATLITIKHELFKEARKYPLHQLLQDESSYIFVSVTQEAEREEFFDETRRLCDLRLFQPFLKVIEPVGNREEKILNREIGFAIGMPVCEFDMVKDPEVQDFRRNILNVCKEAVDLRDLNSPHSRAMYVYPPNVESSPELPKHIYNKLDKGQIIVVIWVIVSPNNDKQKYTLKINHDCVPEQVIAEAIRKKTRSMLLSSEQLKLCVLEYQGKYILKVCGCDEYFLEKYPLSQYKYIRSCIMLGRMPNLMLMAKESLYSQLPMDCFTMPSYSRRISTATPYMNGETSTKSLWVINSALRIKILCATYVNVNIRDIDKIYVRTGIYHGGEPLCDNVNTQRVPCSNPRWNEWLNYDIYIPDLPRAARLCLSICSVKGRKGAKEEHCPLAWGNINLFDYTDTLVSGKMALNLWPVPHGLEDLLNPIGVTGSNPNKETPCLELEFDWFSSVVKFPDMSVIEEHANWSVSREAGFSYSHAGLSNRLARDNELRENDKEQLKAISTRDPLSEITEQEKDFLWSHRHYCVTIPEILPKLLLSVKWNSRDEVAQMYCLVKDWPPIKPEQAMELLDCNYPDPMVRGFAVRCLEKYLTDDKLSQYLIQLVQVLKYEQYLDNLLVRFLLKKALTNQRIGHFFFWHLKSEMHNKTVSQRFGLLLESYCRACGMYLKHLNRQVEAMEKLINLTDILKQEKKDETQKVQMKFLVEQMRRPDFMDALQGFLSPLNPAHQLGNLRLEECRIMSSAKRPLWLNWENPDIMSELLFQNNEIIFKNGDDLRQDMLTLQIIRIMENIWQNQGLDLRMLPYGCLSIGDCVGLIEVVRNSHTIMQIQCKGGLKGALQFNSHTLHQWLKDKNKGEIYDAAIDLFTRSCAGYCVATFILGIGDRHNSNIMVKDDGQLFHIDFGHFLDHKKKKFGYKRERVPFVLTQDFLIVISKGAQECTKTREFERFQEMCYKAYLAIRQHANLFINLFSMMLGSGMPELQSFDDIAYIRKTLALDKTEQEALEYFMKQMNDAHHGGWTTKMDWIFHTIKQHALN
Sequence of UniProt P54760 (whole entry, looked up): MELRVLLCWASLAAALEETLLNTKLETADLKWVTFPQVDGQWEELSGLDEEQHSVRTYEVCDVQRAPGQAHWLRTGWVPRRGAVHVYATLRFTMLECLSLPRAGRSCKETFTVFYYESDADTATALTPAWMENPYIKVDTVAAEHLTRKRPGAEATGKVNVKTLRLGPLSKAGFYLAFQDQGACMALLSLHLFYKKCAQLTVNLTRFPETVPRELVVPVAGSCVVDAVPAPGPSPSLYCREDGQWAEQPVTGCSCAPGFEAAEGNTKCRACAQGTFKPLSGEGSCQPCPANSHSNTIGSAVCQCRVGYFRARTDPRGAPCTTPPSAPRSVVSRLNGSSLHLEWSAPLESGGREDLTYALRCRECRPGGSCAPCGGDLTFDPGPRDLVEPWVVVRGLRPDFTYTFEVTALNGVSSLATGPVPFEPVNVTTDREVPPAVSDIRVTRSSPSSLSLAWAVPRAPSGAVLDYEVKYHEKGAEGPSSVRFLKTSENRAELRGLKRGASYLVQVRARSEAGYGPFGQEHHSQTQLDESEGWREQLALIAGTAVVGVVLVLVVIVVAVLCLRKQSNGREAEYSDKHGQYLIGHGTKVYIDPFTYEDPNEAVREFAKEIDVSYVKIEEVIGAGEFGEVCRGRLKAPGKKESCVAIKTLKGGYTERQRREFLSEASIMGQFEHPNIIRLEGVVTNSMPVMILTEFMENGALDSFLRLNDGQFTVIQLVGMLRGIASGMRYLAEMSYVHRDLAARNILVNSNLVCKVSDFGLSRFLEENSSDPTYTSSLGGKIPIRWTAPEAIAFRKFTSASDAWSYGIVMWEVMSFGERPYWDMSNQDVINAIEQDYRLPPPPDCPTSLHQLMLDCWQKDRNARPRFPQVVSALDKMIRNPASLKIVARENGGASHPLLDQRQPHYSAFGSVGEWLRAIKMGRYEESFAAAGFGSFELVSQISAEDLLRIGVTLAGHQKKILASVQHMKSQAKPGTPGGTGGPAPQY
Sequence of UniProt Q8TD08 (whole entry, looked up): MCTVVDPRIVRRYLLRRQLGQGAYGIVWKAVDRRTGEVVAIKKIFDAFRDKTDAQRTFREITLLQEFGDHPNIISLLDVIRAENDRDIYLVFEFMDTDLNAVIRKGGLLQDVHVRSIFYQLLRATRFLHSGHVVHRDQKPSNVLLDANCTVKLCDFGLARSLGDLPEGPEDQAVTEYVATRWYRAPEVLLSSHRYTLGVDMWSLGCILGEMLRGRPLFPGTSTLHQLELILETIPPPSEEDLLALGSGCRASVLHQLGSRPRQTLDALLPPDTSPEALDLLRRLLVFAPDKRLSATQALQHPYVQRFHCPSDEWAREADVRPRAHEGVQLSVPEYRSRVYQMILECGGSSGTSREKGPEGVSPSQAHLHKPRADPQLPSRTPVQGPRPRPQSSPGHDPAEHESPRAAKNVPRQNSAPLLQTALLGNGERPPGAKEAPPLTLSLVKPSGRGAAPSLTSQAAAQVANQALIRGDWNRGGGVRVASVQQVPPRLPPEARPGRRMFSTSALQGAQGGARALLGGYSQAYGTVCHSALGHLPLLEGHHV
Sequence of UniProt P29320 (whole entry, looked up): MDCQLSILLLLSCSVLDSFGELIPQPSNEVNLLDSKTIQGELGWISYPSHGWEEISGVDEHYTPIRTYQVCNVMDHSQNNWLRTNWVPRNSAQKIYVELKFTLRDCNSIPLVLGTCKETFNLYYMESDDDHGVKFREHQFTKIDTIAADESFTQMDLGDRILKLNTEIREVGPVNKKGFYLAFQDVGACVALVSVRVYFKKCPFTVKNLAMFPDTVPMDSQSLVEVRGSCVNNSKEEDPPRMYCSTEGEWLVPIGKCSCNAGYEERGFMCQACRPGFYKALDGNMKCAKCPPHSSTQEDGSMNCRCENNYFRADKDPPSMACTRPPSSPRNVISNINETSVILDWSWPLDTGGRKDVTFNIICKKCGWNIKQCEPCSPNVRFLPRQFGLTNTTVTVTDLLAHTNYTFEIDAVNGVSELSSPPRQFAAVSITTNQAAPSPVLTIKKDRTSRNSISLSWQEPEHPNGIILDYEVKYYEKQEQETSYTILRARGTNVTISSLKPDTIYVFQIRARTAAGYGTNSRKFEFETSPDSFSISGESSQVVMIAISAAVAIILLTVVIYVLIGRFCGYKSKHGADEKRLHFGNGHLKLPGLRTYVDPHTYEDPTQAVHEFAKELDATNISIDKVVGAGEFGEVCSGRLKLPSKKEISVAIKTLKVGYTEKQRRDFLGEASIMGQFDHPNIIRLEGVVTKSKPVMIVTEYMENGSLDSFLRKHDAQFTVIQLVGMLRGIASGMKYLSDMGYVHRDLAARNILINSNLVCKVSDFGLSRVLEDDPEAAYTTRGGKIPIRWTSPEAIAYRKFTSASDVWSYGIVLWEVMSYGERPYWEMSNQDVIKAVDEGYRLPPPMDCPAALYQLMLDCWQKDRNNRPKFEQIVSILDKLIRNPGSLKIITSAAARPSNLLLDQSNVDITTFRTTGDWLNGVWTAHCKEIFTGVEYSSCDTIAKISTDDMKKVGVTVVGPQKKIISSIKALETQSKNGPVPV
Sequence of UniProt Q16539 (whole entry, looked up): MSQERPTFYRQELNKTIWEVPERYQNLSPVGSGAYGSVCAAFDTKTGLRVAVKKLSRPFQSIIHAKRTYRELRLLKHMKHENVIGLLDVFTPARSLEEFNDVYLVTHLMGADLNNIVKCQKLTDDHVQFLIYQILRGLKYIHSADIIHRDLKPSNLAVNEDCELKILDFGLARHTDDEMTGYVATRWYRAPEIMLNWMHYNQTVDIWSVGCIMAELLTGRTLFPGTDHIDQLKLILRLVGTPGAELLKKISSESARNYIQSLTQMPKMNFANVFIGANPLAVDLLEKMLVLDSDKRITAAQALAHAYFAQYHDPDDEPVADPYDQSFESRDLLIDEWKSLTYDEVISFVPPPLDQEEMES

Sample 1
Host: human
Sample: microsomes or S9
Tested at: 2 µM
Time: 0.5 h
With `CC(C)CCN(C)C1CCN(S(=O)(=O)c2ccc(C(C)(C)C)cc2)CC1` the remaining compound was 54.2%.
`O=S(=O)(c1ccc(F)cc1Cl)N1CC[C@H]2[C@H](C1)OCc1cnnn12` gave a remaining compound of 73.3%.
With `c1ccc2c(c1)CC(n1ccnc1-c1cc3n(n1)CCNC3)CO2` (stereo not drawn) the remaining compound was greater than 100%.
For `COC(=O)c1c(C)[nH]c(C(=O)CN2CCCC2c2nc3ccccc3s2)c1C` (stereo not drawn), the remaining compound was 0.505%.
`CC(C)c1nnc(-c2cccnc2N2CCN(C(=O)C3COc4ccccc4O3)CC2)o1` (stereo not drawn) has a remaining compound of 14.7%.
`COc1ccc(CC(=O)NCc2csc(C)n2)cc1` gave a remaining compound of 99.8%.
The remaining compound of `Cc1ccc(S(=O)(=O)N[C@@H]2c3c(Cl)cccc3[C@H](C(=O)OC(C)C)[C@H]2C(=O)OC(C)C)cc1` is reported as less than 1%.
`Cc1nc(S(=O)(=O)NCc2c3c(nn2C)CCC3)cn1C` gave a remaining compound of 37.4%.
With `CC(C)N(CCNC(=O)c1ccc2c(c1)N(Cc1cccc(Cl)c1)C(=O)c1ccccc1[S+]2[O-])Cc1ccccc1` (stereo not drawn) the remaining compound was 0.234%.
For `COc1ccc(-c2c(-c3ccccc3)nn(-c3ccccc3OC)c2N)cc1OC`, the remaining compound was 68.3%.
With `Cn1cc(S(=O)(=O)N2CCc3sccc3C2c2cccs2)c(=O)n(C)c1=O` (stereo not drawn) the remaining compound was 4.4%.
For `CCc1ccccc1NC(=O)CN(C)C(=O)C1CCN(c2cnn(Cc3ccccc3)c(=O)c2)C1` (stereo not drawn), the remaining compound was 14.9%.
`C/C(=C\COc1ccc2ccc(=O)oc2c1)CC[C@H]1C(C)(C)[C@@H](O)CC[C@@]1(C)O` gave a remaining compound of 46.7%.
For `Cc1nc2nc(CCNS(=O)(=O)c3cccs3)cn2nc1C`, the remaining compound was greater than 99%.

Sample 2
Target: Serine/threonine-protein kinase pim-2 (PIM2, Homo sapiens, UniProt Q9P1W9)
Sequence of UniProt Q9P1W9 (whole entry, looked up): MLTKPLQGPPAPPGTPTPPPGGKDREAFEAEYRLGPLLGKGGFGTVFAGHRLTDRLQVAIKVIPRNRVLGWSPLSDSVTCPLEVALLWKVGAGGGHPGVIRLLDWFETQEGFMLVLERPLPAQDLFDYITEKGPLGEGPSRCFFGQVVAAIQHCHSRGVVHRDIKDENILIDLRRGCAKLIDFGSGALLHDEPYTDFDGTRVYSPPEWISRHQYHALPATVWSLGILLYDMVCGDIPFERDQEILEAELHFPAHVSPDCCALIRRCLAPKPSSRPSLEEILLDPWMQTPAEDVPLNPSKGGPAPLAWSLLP
Observed: enzyme activity
Action: inhibitor
Tested at: 0.5 µM
Baseline: control
`CN(C)CCCn1cc(C2=C(c3c[nH]c4ccccc34)C(=O)NC2=O)c2ccccc21` has a remaining activity of 64.1%.
`CC(C)[C@H](CO)Nc1nc(Nc2cccc(Cl)c2)c2ncn(C(C)C)c2n1` gave a remaining activity of 105%.
For `CS(=O)(=O)CCNCc1ccc(-c2ccc3ncnc(Nc4ccc(OCc5cccc(F)c5)c(Cl)c4)c3c2)o1`, the remaining activity was 102%.
For `COc1cc2ncnc(N3CCN(C(=O)Nc4ccc(Oc5ccccc5)cc4)CC3)c2cc1OC`, the remaining activity was 101%.
For `O=c1cc(N2CCOCC2)oc2c1ccc1ccccc12`, the remaining activity was 78.8%.
With `Cn1cnc2cc3c(Nc4cccc(Br)c4)ncnc3cc21` the remaining activity was 113%.
`O=C(Nc1ccc(Cl)cc1)c1ccccc1NCc1ccncc1` has a remaining activity of 99.5%.
`Cn1cc(/C=C2\C(=O)Nc3ccc(S(N)(=O)=O)cc32)c2ccccc21` gave a remaining activity of 101%.
The remaining activity of `CC(C)c1nn(-c2c(Cl)cccc2Cl)c2nc(Cc3ccc(OCCO)cc3)[nH]c(=O)c12` is reported as 104%.
`COc1ccc(-c2cnc3c(-c4ccsc4)cnn3c2)cc1` gave a remaining activity of 105%.
`COc1cc2ncc(-c3ccccc3)nc2cc1OC` has a remaining activity of 101%.
With `COc1ccc(Cl)cc1NC(=O)Nc1cc(C)nc2ccccc12` the remaining activity was 99.8%.
`CC(=O)O/N=C1/C(c2c(O)[nH]c3cc(Br)ccc23)=Nc2ccccc21` gave a remaining activity of 93.2%.
With `CCOc1cc2ncnc(Nc3cccc(Br)c3)c2cc1OCC` the remaining activity was 98.9%.
The remaining activity of `Cc1ccc(NC(=O)c2ccc(CN3CCN(C)CC3)cc2)cc1Nc1nccc(-c2cccnc2)n1` is reported as 98.4%.
`CCN1/C(=C/C(C)=O)Sc2ccc(OC)cc21` gave a remaining activity of 102%.
`Cc1nc(Nc2ncc(C(=O)Nc3c(C)cccc3Cl)s2)cc(N2CCN(CCO)CC2)n1` gave a remaining activity of 113%.
For `C[S+]([O-])c1ccc(-c2nc(-c3ccncc3)c(-c3ccc(F)cc3)[nH]2)cc1` (stereo not drawn), the remaining activity was 104%.
For `COc1cc2ncnc(Nc3ccc(OCc4ccccc4)cc3)c2cc1OC`, the remaining activity was 97.6%.
For `Nc1[nH]nc2nnc(-c3c(-c4ccccc4)nn4ccccc34)cc12`, the remaining activity was 91.7%.
`O=C1NC(=O)/C(=C/c2ccc3nccnc3c2)S1` gave a remaining activity of 100%.
The remaining activity of `CCC(=O)Nc1ccc2ncnc(Nc3cccc(Br)c3)c2c1` is reported as 90.3%.

Sample 3
Target: Beta-1 adrenergic receptor (ADRB1, Homo sapiens, UniProt P08588)
Sequence of UniProt P08588 (whole entry, looked up): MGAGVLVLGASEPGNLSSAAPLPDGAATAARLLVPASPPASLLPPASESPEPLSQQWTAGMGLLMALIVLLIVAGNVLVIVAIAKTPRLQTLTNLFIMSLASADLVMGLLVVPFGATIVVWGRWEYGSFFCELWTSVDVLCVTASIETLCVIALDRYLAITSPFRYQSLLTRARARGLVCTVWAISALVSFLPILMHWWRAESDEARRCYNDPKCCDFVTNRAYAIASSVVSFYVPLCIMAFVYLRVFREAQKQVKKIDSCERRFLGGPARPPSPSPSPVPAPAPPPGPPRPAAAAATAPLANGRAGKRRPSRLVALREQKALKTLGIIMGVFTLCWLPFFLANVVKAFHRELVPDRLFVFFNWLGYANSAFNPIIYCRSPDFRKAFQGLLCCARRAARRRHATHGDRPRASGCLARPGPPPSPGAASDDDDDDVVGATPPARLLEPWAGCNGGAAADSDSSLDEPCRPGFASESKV
Action: antagonist
The IC50 of `Cc1cc2ncn(-c3ccc4ccccc4n3)c2cc1C` is reported as no less than 100 µM.
`COc1ccc(C(O)Cn2ccn3nc(-c4ccc(C(C)C)cc4)cc3c2=O)cc1` (stereo not drawn) has an IC50 of no less than 100 µM.
For `O=C1CCCN1CCC1CCN(Cc2cccc(OCC(O)CN3CCOCC3)c2)CC1` (stereo not drawn), the IC50 was no less than 100 µM.
For `O=C(Nc1cnc2ccccc2c1)c1cn(-c2ccccc2C(F)(F)F)nn1`, the IC50 was no less than 100 µM.
The IC50 of `Cc1cc(C)n(-c2ccc(=O)n(CC3CN(c4nc5c(cc4C#N)CCC5)C3)n2)n1` is reported as no less than 100 µM.
`Cc1cccc(NC(=O)c2sc3nc(-c4cc5ccc(O)cc5oc4=O)[nH]c(=O)c3c2C)c1` gave an IC50 of no less than 100 µM.
`COc1ccc(-c2cc(=O)oc3cc(OCC(N)=O)ccc23)cc1` gave an IC50 of no less than 100 µM.
With `Cc1ccc(F)c(Cn2cnc3c(cnn3C(C)(C)C)c2=O)c1Cl` the IC50 was no less than 100 µM.
With `c1ccc(OCC2CN(Cc3ccc4[nH]ccc4c3)CC23CN(c2ccccc2)C3)cc1` (stereo not drawn) the IC50 was no less than 100 µM.
With `N#Cc1ccc(C(=O)Nc2ccc([C@@H](O)[C@H]3COCC(=O)N3CCCc3ccccc3)cc2)cc1` the IC50 was no less than 100 µM.
`COc1ccc(OC)c(-c2ncc3c(n2)OCCN(c2cccc(C(F)(F)F)c2)C3=O)c1` has an IC50 of no less than 100 µM.

Sample 4
Compound: NS(=O)(=O)c1cc(NC(=O)Cc2ccccc2)ccc1Oc1cccc(Cl)c1
Observed: cell-free assay
Method: competition with immobilised ligand
Tested at: 1 µM
The remaining binding was 73% (Interleukin-1 receptor-associated kinase 1 (IRAK1, Homo sapiens, UniProt P51617)).
For Tyrosine-protein kinase ABL1, non-phosphorylated (ABL1, Homo sapiens, UniProt P00519, Q252H): remaining binding read 100%.
For Serine/threonine-protein kinase D1 (PRKD1, Homo sapiens, UniProt Q15139): remaining binding read 96%.
For Ephrin type-A receptor 6 (EPHA6, Homo sapiens, UniProt Q9UF33): remaining binding read 83%.
For Mitogen-activated protein kinase kinase kinase 13 (MAP3K13, Homo sapiens, UniProt O43283): remaining binding read 73%.
It gave 80% for remaining binding (Proto-oncogene tyrosine-protein kinase receptor Ret (RET, Homo sapiens, UniProt P07949, V804L)).
The remaining binding was 78% (Ephrin type-A receptor 3 (EPHA3, Homo sapiens, UniProt P29320)).
The remaining binding was 100% (Atypical kinase COQ8B, mitochondrial (COQ8B, Homo sapiens, UniProt Q96D53)).
It gave 89% for remaining binding (Phosphatidylinositol 4,5-bisphosphate 3-kinase catalytic subunit alpha isoform (PIK3CA, Homo sapiens, UniProt P42336)).
The remaining binding was 92% (Cyclin-dependent kinase 16 (CDK16, Homo sapiens, UniProt Q00536)).
The remaining binding was 71% (Mitogen-activated protein kinase kinase kinase kinase 4 (MAP4K4, Homo sapiens, UniProt O95819)).
The remaining binding was 81% (Proto-oncogene tyrosine-protein kinase ROS (ROS1, Homo sapiens, UniProt P08922)).
Dual specificity mitogen-activated protein kinase kinase 3 (MAP2K3, Homo sapiens, UniProt P46734) — remaining binding: 83%.
Mitogen-activated protein kinase kinase kinase 2 (MAP3K2, Homo sapiens, UniProt Q9Y2U5) — remaining binding: 84%.
The remaining binding was 68% (Mitogen-activated protein kinase 15 (MAPK15, Homo sapiens, UniProt Q8TD08)).
For Activin receptor type-1 (ACVR1, Homo sapiens, UniProt Q04771): remaining binding read 84%.
Serine/threonine-protein kinase MARK2 (MARK2, Homo sapiens, UniProt Q7KZI7) — remaining binding: 59%.
For Tyrosine-protein kinase JAK1, JH1 (JAK1, Homo sapiens, UniProt P23458): remaining binding read 99%.
The remaining binding was 83% (Dual specificity protein kinase CLK3 (CLK3, Homo sapiens, UniProt P49761)).
MAP/microtubule affinity-regulating kinase 3 (MARK3, Homo sapiens, UniProt P27448) — remaining binding: 100%.
Ephrin type-B receptor 4 (EPHB4, Homo sapiens, UniProt P54760) — remaining binding: 98%.
The remaining binding was 85% (Serine/threonine-protein kinase PAK 3 (PAK3, Homo sapiens, UniProt O75914)).
The remaining binding was 69% (Tyrosine-protein kinase Fyn (FYN, Homo sapiens, UniProt P06241)).
For Mitogen-activated protein kinase 14 (MAPK14, Homo sapiens, UniProt Q16539): remaining binding read 100%.
Peripheral plasma membrane protein CASK (CASK, Homo sapiens, UniProt O14936) — remaining binding: 86%.

Repeated from above (sample 3):
With `c1ccc(OCC2CN(Cc3ccc4[nH]ccc4c3)CC23CN(c2ccccc2)C3)cc1` (stereo not drawn) the IC50 was no less than 100 µM.
`COc1ccc(C(O)Cn2ccn3nc(-c4ccc(C(C)C)cc4)cc3c2=O)cc1` (stereo not drawn) has an IC50 of no less than 100 µM.
With `N#Cc1ccc(C(=O)Nc2ccc([C@@H](O)[C@H]3COCC(=O)N3CCCc3ccccc3)cc2)cc1` the IC50 was no less than 100 µM.
The IC50 of `Cc1cc(C)n(-c2ccc(=O)n(CC3CN(c4nc5c(cc4C#N)CCC5)C3)n2)n1` is reported as no less than 100 µM.
`COc1ccc(-c2cc(=O)oc3cc(OCC(N)=O)ccc23)cc1` gave an IC50 of no less than 100 µM.
The IC50 of `Cc1cc2ncn(-c3ccc4ccccc4n3)c2cc1C` is reported as no less than 100 µM.
`COc1ccc(OC)c(-c2ncc3c(n2)OCCN(c2cccc(C(F)(F)F)c2)C3=O)c1` has an IC50 of no less than 100 µM.
For `O=C1CCCN1CCC1CCN(Cc2cccc(OCC(O)CN3CCOCC3)c2)CC1` (stereo not drawn), the IC50 was no less than 100 µM.
For `O=C(Nc1cnc2ccccc2c1)c1cn(-c2ccccc2C(F)(F)F)nn1`, the IC50 was no less than 100 µM.
`Cc1cccc(NC(=O)c2sc3nc(-c4cc5ccc(O)cc5oc4=O)[nH]c(=O)c3c2C)c1` gave an IC50 of no less than 100 µM.
With `Cc1ccc(F)c(Cn2cnc3c(cnn3C(C)(C)C)c2=O)c1Cl` the IC50 was no less than 100 µM.
